Assay results gathered from unrelated publications.
Every numbered part comes from another study and shows a few of its results, in no order. Values joined by “and” are separate records of one study, mostly repeats; a detail may differ.
Chain of UniProt Q9Y5S2 (whole entry, looked up): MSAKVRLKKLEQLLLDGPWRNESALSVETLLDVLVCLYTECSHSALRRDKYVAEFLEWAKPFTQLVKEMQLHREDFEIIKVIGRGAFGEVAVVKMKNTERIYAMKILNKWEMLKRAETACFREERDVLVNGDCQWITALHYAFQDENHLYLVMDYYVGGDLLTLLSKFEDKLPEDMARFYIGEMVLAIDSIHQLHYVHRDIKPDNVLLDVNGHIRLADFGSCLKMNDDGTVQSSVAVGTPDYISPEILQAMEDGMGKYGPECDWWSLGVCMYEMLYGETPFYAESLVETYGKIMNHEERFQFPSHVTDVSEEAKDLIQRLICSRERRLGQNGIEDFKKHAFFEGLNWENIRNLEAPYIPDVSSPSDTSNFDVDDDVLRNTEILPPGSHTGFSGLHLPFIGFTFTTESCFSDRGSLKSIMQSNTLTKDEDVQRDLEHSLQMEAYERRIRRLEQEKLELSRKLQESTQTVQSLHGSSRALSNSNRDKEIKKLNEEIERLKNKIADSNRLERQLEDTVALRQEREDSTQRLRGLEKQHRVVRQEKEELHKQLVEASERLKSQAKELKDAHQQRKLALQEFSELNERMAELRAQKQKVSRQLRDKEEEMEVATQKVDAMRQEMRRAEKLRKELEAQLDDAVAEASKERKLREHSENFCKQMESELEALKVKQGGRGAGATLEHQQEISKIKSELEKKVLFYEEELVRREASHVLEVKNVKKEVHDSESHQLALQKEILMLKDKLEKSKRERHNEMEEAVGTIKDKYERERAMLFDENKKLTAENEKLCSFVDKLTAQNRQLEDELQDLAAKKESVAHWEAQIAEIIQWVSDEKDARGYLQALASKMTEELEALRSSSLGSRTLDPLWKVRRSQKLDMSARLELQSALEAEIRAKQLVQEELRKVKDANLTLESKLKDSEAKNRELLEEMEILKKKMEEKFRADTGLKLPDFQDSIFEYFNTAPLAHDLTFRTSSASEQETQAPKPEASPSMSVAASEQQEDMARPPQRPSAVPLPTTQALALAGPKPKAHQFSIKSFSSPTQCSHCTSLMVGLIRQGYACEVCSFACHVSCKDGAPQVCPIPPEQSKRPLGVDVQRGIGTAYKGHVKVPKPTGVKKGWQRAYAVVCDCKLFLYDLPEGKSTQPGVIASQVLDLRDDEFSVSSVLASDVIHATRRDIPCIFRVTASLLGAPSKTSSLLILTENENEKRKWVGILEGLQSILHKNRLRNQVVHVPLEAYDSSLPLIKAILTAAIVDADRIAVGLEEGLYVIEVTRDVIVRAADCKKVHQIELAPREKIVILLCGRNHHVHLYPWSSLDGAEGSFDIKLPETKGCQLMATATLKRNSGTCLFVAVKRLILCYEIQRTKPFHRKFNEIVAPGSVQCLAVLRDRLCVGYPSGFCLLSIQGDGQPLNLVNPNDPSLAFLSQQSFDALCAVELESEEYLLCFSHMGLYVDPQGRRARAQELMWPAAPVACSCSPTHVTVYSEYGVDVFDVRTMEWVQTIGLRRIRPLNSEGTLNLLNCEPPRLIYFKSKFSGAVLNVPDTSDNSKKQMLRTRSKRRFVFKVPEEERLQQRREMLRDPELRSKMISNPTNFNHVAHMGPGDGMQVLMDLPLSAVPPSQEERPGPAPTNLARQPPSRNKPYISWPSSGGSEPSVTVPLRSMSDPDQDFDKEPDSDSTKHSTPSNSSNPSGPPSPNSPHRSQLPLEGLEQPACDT
Chain of UniProt P20309 (whole entry, looked up): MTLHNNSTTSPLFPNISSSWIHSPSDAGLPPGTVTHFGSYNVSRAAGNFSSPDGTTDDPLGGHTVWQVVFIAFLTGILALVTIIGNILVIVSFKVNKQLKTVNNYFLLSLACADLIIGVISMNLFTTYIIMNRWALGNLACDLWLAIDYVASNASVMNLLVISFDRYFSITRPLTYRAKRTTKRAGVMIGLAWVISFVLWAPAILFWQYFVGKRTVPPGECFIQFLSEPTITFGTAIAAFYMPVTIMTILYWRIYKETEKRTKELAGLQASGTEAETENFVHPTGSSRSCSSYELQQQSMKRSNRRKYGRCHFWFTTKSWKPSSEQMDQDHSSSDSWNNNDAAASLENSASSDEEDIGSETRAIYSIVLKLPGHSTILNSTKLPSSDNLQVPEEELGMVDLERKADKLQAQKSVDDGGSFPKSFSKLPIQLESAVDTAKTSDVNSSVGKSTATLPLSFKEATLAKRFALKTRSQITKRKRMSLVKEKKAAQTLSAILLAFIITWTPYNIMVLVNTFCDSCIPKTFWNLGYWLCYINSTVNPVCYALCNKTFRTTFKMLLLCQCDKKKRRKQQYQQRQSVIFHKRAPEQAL
Chain of UniProt P31645 (whole entry, looked up): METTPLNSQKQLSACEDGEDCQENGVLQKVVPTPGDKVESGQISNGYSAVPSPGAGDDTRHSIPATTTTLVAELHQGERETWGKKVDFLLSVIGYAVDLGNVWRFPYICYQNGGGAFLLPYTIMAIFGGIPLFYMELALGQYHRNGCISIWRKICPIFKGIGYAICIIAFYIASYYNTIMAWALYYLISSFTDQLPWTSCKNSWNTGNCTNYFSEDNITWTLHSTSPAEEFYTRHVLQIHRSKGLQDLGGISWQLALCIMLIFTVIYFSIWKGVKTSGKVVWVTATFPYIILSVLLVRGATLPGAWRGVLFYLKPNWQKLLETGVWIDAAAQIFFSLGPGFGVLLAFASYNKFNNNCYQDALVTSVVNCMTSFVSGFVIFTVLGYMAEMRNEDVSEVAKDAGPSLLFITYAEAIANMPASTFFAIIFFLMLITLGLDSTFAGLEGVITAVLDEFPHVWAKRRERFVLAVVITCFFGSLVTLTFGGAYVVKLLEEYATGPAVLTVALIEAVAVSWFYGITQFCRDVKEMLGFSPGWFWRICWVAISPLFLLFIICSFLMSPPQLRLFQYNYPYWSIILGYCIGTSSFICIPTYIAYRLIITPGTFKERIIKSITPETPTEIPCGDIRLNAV
Chain of UniProt P41145 (whole entry, looked up): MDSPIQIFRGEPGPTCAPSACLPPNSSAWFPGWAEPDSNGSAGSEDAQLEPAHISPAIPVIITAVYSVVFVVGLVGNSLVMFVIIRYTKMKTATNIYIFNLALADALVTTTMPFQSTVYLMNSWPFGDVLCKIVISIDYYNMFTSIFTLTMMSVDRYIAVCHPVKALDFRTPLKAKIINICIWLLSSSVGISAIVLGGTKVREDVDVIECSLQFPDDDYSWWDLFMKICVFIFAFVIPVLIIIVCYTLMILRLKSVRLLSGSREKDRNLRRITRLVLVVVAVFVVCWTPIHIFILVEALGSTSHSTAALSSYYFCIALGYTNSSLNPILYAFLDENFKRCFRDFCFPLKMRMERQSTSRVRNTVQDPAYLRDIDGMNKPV
Chain of UniProt Q9H093 (whole entry, looked up): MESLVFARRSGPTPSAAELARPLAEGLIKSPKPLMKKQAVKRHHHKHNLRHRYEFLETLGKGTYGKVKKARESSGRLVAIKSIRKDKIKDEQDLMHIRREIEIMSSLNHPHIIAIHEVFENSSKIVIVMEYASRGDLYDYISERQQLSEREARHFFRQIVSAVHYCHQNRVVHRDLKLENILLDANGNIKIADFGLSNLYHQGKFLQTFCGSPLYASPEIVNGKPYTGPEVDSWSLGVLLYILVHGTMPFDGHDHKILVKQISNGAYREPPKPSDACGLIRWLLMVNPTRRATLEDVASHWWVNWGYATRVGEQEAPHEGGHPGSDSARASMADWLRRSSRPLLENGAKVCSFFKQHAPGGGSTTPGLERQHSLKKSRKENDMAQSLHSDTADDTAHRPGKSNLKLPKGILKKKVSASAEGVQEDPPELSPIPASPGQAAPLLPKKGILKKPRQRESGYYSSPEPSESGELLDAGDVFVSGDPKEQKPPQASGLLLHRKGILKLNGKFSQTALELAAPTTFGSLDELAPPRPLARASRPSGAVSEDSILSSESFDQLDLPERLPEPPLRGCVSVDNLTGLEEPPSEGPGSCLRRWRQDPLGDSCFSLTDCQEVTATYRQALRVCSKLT
Chain of UniProt Q01959 (whole entry, looked up): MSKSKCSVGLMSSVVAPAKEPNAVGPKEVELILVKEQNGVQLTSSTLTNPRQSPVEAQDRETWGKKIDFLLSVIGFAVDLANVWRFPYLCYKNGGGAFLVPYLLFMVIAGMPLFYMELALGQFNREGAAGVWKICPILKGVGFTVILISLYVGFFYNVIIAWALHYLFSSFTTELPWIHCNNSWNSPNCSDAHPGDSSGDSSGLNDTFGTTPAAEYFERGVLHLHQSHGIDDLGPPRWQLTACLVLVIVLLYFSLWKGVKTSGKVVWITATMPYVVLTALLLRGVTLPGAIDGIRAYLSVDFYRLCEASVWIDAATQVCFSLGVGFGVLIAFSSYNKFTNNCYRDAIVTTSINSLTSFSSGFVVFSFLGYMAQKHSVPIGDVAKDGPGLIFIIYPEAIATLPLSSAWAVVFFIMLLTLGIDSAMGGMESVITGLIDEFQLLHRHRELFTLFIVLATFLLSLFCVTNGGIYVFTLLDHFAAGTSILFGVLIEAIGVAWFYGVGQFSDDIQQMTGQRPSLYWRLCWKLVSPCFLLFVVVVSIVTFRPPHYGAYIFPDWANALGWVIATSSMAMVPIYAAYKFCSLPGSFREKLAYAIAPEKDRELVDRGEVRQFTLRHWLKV

Block 1
Compound: CC(C)(C)c1cc(C=C(C#N)C#N)cc(Br)c1O
Effect on: enzyme activity
Action: inhibitor
Concentration: 0.5 µM
| target | remaining activity |
| --- | --- |
| NUAK2 (Homo sapiens, UniProt Q9H093) | 99.6% |
| TSSK2 (Homo sapiens, UniProt Q96PF2) | 96.6% |
| CDC42BPB (Homo sapiens, UniProt Q9Y5S2) | 103% |

Block 2
SMILES: CCS(=O)(=O)c1cc2cc(C[C@@](O)(CC(C)(C)c3ccc(F)cc3C(N)=O)C(F)(F)F)[nH]c2cn1
Concentration: 10 µM
| target | effect on | method | inhibition [%] |
| --- | --- | --- | --- |
| OPRM1 (Homo sapiens, UniProt P35372) | binding | radioligand binding | 7.98 |
| SLC6A4 (Homo sapiens, UniProt P31645) | binding | radioligand binding | -10.9 |
| SLC6A2 (Homo sapiens, UniProt P23975) | binding | radioligand binding | -15.5 |
| CHRM3 (Homo sapiens, UniProt P20309) | binding | radioligand binding | 1.25 |
| OPRK1 (Homo sapiens, UniProt P41145) | binding | radioligand binding | 28.3 |
| DRD5 (Homo sapiens, UniProt P21918) | binding | radioligand binding | 32.4 |
| HTR2A (Homo sapiens, UniProt P28223) | cell-free assay |  | 14.1 |
| SLC6A3 (Homo sapiens, UniProt Q01959) | binding | radioligand binding | 2.58 |

Block 3
Target: Calcium/calmodulin-dependent protein kinase type II subunit alpha (CAMK2A, Homo sapiens, UniProt Q9UQM7)
Chain of UniProt Q9UQM7 (whole entry, looked up): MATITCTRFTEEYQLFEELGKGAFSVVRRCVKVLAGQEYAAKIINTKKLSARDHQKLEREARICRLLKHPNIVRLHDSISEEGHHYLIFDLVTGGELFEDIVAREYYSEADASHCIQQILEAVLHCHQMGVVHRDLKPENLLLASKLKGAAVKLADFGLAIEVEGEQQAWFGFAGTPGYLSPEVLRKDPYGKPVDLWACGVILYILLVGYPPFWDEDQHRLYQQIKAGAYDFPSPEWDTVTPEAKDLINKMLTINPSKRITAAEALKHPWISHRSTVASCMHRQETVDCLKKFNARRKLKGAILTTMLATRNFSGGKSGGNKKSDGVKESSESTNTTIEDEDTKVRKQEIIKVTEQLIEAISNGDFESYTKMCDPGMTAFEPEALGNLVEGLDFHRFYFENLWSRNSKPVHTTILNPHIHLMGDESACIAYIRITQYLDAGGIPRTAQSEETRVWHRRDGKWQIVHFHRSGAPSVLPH
Effect on: enzyme activity
Action: inhibitor
Concentration: 10 µM
| Compound | inhibition [%] |
| --- | --- |
| C[C@@]1(C(=O)O)CC[C@]2(C)CC[C@]3(C)C4=CC(=O)c5c(cc(O)c(O)c5C=O)[C@]4(C)CC[C@@]3(C)[C@@H]2C1 | -32 |
| CC(C)(N)CNC(=O)C[C@H]1CC[C@]2(CC1)OO[C@]1(O2)C2CC3CC(C2)CC1C3 | 4 |
| C[S+]([O-])/C=C/CCN=C=S (centres unmarked) | -13 |
| CC[C@@]1(O)C(=O)OCc2c1cc1n(c2=O)Cc2cc3ccccc3nc2-1 | -7 |
| C[C@H]1O[C@@H](O[C@H]2CC[C@@]3(C)[C@H](CC[C@@H]4[C@@H]3C[C@@H](O)[C@]3(C)[C@@H](C5=CC(=O)OC5)CC[C@]43O)C2)C[C@H](O)[C@@H]1O[C@H]1C[C@H](O)[C@H](O[C@H]2C[C@H](O)[C@H](O[C@@H]3O[C@H](CO)[C@@H](O)[C@H](O)[C@H]3O)[C@@H](C)O2)[C@@H](C)O1 | -5 |
| C[C@]12CC[C@@H](O)C[C@@H]1CC[C@@H]1[C@@H]2[C@@H](O)C[C@]2(C)C(=O)CC[C@@H]12 | -22 |
| CC(=O)OC(C)(C)/C=C/C(=O)[C@](C)(O)[C@H]1[C@H](O)C[C@@]2(C)[C@@H]3CC=C4[C@@H](C[C@H](O)C(=O)C4(C)C)[C@]3(C)C(=O)C[C@]12C | -13 |

Block 4
SMILES: CC(C)S(=O)(=O)c1cc2c(Nc3ccc4sc(C5CCCC5)nc4c3)ccnc2cc1OCCO
Method: CCK-8
| cell line | concentration | added | survival |
| --- | --- | --- | --- |
| L929 RIPK3-/- reexpressing RIPK3 K51A | 3.125 µM |  | 93.3% and 89.9% and 86.5% and 99.1% |
| L929 RIPK3-/- reexpressing RIPK3 K51A/R69H | 50 µM | zVAD | 26.7% and 23.6% and 25.4% and 25.2% and 25.7% |
| L929 RIPK3-/- reexpressing RIPK3 K51A/R69H | 3.125 µM |  | 102% and 96.9% and 89.1% and 86.3% |
| L929 RIPK3-/- reexpressing RIPK3 K51A | 50 µM | zVAD | 11.8% and 13.5% and 13.1% and 11.4% and 12.9% |
| L929 RIPK3-/- reexpressing RIPK3 K51A/R69H | 12.5 µM |  | 75.7% and 81.8% and 87.1% and 78.9% and 78.8% |
| L929 RIPK3-/- reexpressing RIPK3 K51A/R69H | 25 µM |  | 66.2% and 64.5% and 70.3% and 61% and 60.2% |
| L929 RIPK3-/- reexpressing RIPK3 K51A/R69H | 50 µM |  | 25.5% and 25.2% and 28.1% and 28.7% |
| L929 RIPK3-/- reexpressing RIPK3 K51A | 6.25 µM |  | 85.2% and 82.1% and 86.7% and 76% |

Some of these lines once more (block 3):
| Compound | inhibition [%] |
| --- | --- |
| C[C@H]1O[C@@H](O[C@H]2CC[C@@]3(C)[C@H](CC[C@@H]4[C@@H]3C[C@@H](O)[C@]3(C)[C@@H](C5=CC(=O)OC5)CC[C@]43O)C2)C[C@H](O)[C@@H]1O[C@H]1C[C@H](O)[C@H](O[C@H]2C[C@H](O)[C@H](O[C@@H]3O[C@H](CO)[C@@H](O)[C@H](O)[C@H]3O)[C@@H](C)O2)[C@@H](C)O1 | -5 |
| C[C@@]1(C(=O)O)CC[C@]2(C)CC[C@]3(C)C4=CC(=O)c5c(cc(O)c(O)c5C=O)[C@]4(C)CC[C@@]3(C)[C@@H]2C1 | -32 |
| CC(C)(N)CNC(=O)C[C@H]1CC[C@]2(CC1)OO[C@]1(O2)C2CC3CC(C2)CC1C3 | 4 |
